Results of several laboratories.
Lines come from different studies, so protocols differ. “And” joins repeats or separate records; there may be more than shown.
CDK9: Cyclin-dependent kinase 9 (CDK9, Homo sapiens, UniProt P50750)
CDK9 with cyclin K: Cyclin-dependent kinase 9, with cyclin K (CDK9, Homo sapiens, UniProt P50750)
CDK9 with cyclin T1: Cyclin-dependent kinase 9, with cyclin T1 (CDK9, Homo sapiens, UniProt P50750)
CDK9 inactive: Cyclin-dependent kinase 9, inactive (CDK9, Homo sapiens, UniProt P50750)

| Structure (SMILES) | target | test | system | setting | scale | endpoint | result |
| --- | --- | --- | --- | --- | --- | --- | --- |
| CNC1C[S+]2CC[S+]3CC[S+](C1)[Ru-4]321([N]=C=S)[n]2c3ccc(OC)cc3c3c4c(c5cc(F)c[n+]1c5c32)C(=O)NC4=O (centres unmarked) | CDK9 | KinomeScan |  | 0.1 µM | reference: untreated | remaining binding | 90% |
| CN1CCN(Cc2ccc(NC(=O)c3cccc(C#Cc4cnc(N)c5ncccc45)c3)cc2C(F)(F)F)CC1 | CDK9 | cell-free assay, competition with immobilised ligand |  | 50 nM |  | remaining binding | 100% |
| CN1C[C@@H](c2c[nH]c3cc(Br)ccc23)NC[C@@H]1c1c[nH]c2cc(Br)ccc12 | CDK9 with cyclin K | enzyme activity, inhibitor |  | 10 µM |  | remaining activity | 106% |
| CS(=O)(=O)Nc1cccc(-c2csc3cnc(Nc4ccc(N5CCN(CCCCCOc6cccc7c6C(=O)N(C6CCC(=O)NC6=O)C7=O)CC5)cc4)nc23)c1 (centres unmarked) | CDK9 | probe labelling, inhibitor, KiNativ chemoproteomics | MOLT-4 | 1 µM |  | inhibition | -6.91% |
| COc1c(OCCCN2CCOCC2)ccc2c1N=C(NC(=O)c1cnc(N)nc1)N1CCN=C21 | CDK9 with cyclin T1 | kinase activity, inhibitor |  | 1 µM | reference: untreated control | remaining activity | 108% |
| Cc1cc(C)nc(Nc2ccc([C@@H]3CCCN(C(=O)/C=C/c4csc(C)n4)C3)nc2)n1 | CDK9 | enzyme activity, inhibitor, ADP detection |  | 1 µM |  | activity vs control | 117% |
| C=CC(=O)N1Cc2nc(-c3cc(-c4cc(Cl)cnc4Cl)c(F)cc3F)n(-c3ccncn3)c2C1 | CDK9 inactive | kinome panel |  | 1 µM |  | inhibition | 4.8% |
| C[C@H]1CN(C(=O)c2cn(-c3ccnc(N)n3)c3cc(C#CC4(O)CCCCC4)ccc23)CCN1 | CDK9 with cyclin T1 | enzyme activity, inhibitor |  | 1 µM |  | inhibition | 4% |
| Cc1[nH]nc2c1N=C(c1ccccc1Cl)c1cnc(N3CCOCC3)cc1N2 | CDK9 | enzyme activity, inhibitor |  | 0.5 µM |  | inhibition | 43.6% |
| COCC12C(=O)NC3C4(C(OC)CC1O)C1CC5(O)C(OC)C(O)C(OC(C)=O)(C1C5OC(=O)c1ccccc1)C3(O)C(OC)C24 (centres unmarked) | Cyclin-dependent kinase 9, with cyclin T (CDK9, Homo sapiens, UniProt P50750) | kinase activity, inhibitor, ProQinase kinase profiling |  | 25 µM | reference: control | remaining activity | 109% and 105% |
| CN1CCN(Cc2ccc(-c3ccc(CO[C@H]4CCC[C@@H]4NC(=O)c4cc(-c5cnn(C)c5)cnc4N)cc3)cc2)CC1 | CDK9 inactive | SelectScreen kinase profiling |  | 0.1 µM |  | inhibition | 1% |
| N[C@H]1CC[C@H](Nc2nccc(-c3cccnc3Oc3ccc(NC(=O)NC4CC4)c4ccccc34)n2)CC1 | CDK9 | kinobead competition pulldown | HEK293/HCT116 lysate mixture | 10 µM, 1 h, 4 °C | lower = stronger competition | log2 LFQ intensity | 25.6 and 25.3 and 25.4 |
| C=CC(=O)Nc1cccc(-c2cnc3[nH]cc(C(=O)NC(C)(C)C)c3n2)c1 | CDK9 with cyclin T1 | kinase activity |  | 0.1 µM |  | inhibition | 2% and 1% |
| C=CC(=O)N1CCc2ccc(-n3c(=O)ccc4cnc5ccc(-c6cnn(C)c6)cc5c43)cc21 | CDK9 | KINOMEscan |  | 1 µM | reference: DMSO control | remaining binding | 100% |
| CCn1cc(C(=O)O)c(=O)c2c(N)c(F)c(NC3CCCCC3)cc21 | CDK9 with cyclin K | kinase activity |  | 0.1 µM, added: ATP at Km |  | inhibition | 13.9% |
| CN1CC[C@@H](COc2cnc(C#N)cc2-c2ccn3nc(NC(=O)C4CC4)cc3c2)C1 | CDK9 with cyclin T1 | enzyme activity, inhibitor |  | 1 µM |  | inhibition | 20% |
| CNS(=O)(=O)Nc1nccc(Cc2c(C)c3ccc(Oc4ncccc4F)cc3oc2=O)c1F | CDK9 | binding, competition with immobilised ligand |  | 10 µM |  | remaining binding | 100% |
| C[C@]1(O)CCCN(c2nc(Nc3ccc(S(=O)(=O)N[C@H]4CC[C@H](CN5CCN(c6ccc(C7CCC(=O)NC7=O)cc6F)CC5)CC4)cc3)ncc2C(F)(F)F)C1 (some centres unmarked) | CDK9 | binding, competition with immobilised ligand |  | 1 µM |  | remaining binding | 96% |
| COc1cc(Nc2nccc(-c3cnn4nc(OC)ccc34)n2)cc(C(F)(F)F)c1 | CDK9 | binding, competition with immobilised ligand |  | 1 µM |  | remaining binding | 84% |
| Cc1nn(C)c(C)c1/C=C/C(=O)N1CCC[C@H](Cc2ccc(Nc3ccccn3)nn2)C1 | CDK9 | enzyme activity, inhibitor, ADP detection |  | 1 µM |  | activity vs control | 101% |
| COc1ccc(C(=O)/C=C/c2ccccc2-c2c[nH]c3ccc(C#N)cc23)c(O)c1 | CDK9 with cyclin T1 | enzyme activity, inhibitor |  | 20 µM |  | inhibition | 9% |
| NC(=O)C[C@H]1CCc2sc3ncnc(O[C@H]4CC[C@H](N5CCOCC5)CC4)c3c21 | CDK9 with cyclin T1 | enzyme activity, inhibitor |  | 10 µM |  | inhibition | 46% |
| CNC(=O)C1CCN(c2cc(C)c(F)cc2NC(=O)c2ccc(-c3cc(O)ccc3C)c(C)c2)CC1 | CDK9 | binding, competition with immobilised ligand |  | 1 µM |  | remaining binding | 95% |
| COc1ccc(NC(=O)Nc2ccc3c(c2)C(=O)N(C(C)CO)CC(C)C(CN(C)Cc2ccc4c(c2)OCO4)O3)cc1 (centres unmarked) | CDK9 | binding, competition with immobilised ligand |  | 10 µM |  | remaining binding | 90% |
| Cc1cccc(O[C@H]2CCC[C@@H](C(C)CNCc3ccncc3)C2)c1 (relative stereo) | CDK9 with cyclin T1 | enzyme activity, inhibitor |  | 10 µM |  | inhibition | 10% |
| O=C(Nc1cc(-c2ccnc3[nH]ccc23)c(Cl)cn1)[C@H]1CCC[C@@H](NC(=O)C(F)(F)F)C1 | CDK9 | binding, KINOMEscan |  | 100 nM |  | inhibition | 99.8% |
